Assay results from different studies.
Several values in a cell are separate wells, animals, samples, runs or records. ± gives the spread as reported.
Sequence of UniProt P04062 (whole entry, unmodified, looked up): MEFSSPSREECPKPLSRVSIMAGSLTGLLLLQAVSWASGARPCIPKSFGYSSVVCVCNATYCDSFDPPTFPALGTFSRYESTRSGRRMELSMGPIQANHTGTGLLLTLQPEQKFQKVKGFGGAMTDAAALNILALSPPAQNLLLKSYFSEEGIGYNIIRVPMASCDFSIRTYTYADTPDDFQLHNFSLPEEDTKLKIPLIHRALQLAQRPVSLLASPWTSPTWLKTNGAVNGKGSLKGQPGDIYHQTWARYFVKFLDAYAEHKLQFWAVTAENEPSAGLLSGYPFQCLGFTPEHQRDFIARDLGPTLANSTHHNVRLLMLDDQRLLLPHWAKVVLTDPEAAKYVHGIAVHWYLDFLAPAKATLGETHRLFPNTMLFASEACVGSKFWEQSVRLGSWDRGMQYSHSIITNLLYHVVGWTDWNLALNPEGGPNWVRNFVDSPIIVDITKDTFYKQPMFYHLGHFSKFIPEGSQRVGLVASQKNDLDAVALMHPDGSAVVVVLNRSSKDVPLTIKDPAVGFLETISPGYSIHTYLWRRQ

COC(=O)Nc1nc2cc(C(O)c3ccc(F)cc3)ccc2[nH]1 (stereo not drawn)
revertants (Salmonella typhimurium; Ames preincubation test; TA100; 109.4 µg/plate, without S9): 134 revertants/plate

CCCC[C@H](NC(=O)CCCCCCCNC(=O)CN1CCN(CC(=O)O)CCN(CC(=O)O)CC1)C(=O)N[C@H]1CC(=O)NCCCC[C@@H](C(N)=O)NC(=O)[C@H](Cc2c[nH]c3ccccc23)NC(=O)[C@H](CCCNC(=N)N)NC(=O)[C@@H](Cc2ccccc2)NC(=O)[C@H](Cc2c[nH]cn2)NC1=O [technetium-99m labelled]
tissue uptake (C57 mouse, pancreas; intravenous, 0.037 MBq, 0.5 h): 0.21 ± 0.22 %ID/g

CC(C)(C)COCCCCCN1C[C@H](O)[C@@H](O)[C@H](O)[C@@H]1CO
IC50 (GBA1 (Homo sapiens, UniProt P04062, R534H); inhibitor, 4MU-β-D-glucopyranoside; together with: 4MU-β-D-glucopyranoside): 100 µM

O=C(Nc1[nH]nc(-c2ccccn2)c1C1CC1)N1CC[C@@H](Cn2cc(C(F)(F)F)cn2)C1
relative translation (Trypanosoma cruzi; reporter mRNA translation, inhibitor, refers to: capped polyadenylated Renilla luciferase mRNA; cell-free extract; concentration not given; relative to: control RNA): 91.8%

CC(C)OCCOCc1ccc(OCC(O)CN(N=O)C(C)C)cc1 (stereo not drawn)
revertant fold increase (Salmonella typhimurium; Ames test; TA1535; 5000 µg/plate, 30 % rat S9; relative to: solvent control): 1.5 fold

CC(C)(C)NCC(SS(=O)(=O)O)c1ccccc1 (stereo not drawn)
body weight (Schistosoma mansoni; perfusion day 57; infected Swiss Webster mice; 200 mg/kg daily x4, dosing from day 7): 34.8 g and 33.2 g and 31.1 g and 30.5 g and 34.3 g

CCN(CC)CC#CCNc1ccnc2cc(Cl)ccc12
revertants (Salmonella typhimurium; mini-Ames test; TA1535; 250.0 µg/well, without S9): 4 revertants/well and 0 revertants/well

Cc1ccc2c(c1)sc(-c1ccc(N(C)C)cc1)[n+]2C.[I-]
relative translation (Trypanosoma cruzi; reporter mRNA translation, inhibitor, refers to: capped polyadenylated Renilla luciferase mRNA; cell-free extract; concentration not given; relative to: control RNA): 61%

O=C1C2CC3CC1CC(C(=O)N1CCN(c4ccc([N+](=O)[O-])c5ncccc45)CC1)(C3)C2
revertant fold increase (Salmonella typhimurium; Ames test; TA98; 0.78 µg/well, without S9; relative to: vehicle): 1

O=C1NC2(CC2)COc2ncc(F)cc2[C@H]2COCCN2c2ccn3ncc1c3n2
revertant colonies (Salmonella typhimurium; Ames test; TA100; 500 µg/plate, 48 h, together with: rat liver S9): 72 ± 8 revertants/plate

COc1ccc2c(c1)C(C)(C)C(/C=C/C1=C(Oc3ccc(C(=O)NCCCCOc4cc(CN(Cc5ccccn5)Cc5ccccn5)cc(CN(Cc5ccccn5)Cc5ccccn5)c4)cc3)C(=C/C=C3/N(CCCCS(=O)(=O)[O-])c4ccc(OC)cc4C3(C)C)CCC1)=[N+]2CCCCS(=O)(=O)[O-].O=[N+]([O-])[O-].O=[N+]([O-])[O-].[99Tc+].[C-]#[O+].[C-]#[O+].[C-]#[O+].[Zn+2]
tissue uptake (Staphylococcus aureus; BALB/c mice, myositis, thyroid and trachea; intravenous, 0.74 MBq, 12 h post-injection): 1.3 %ID/g and 1.21 %ID/g and 0.52 %ID/g and 1.58 %ID/g

CC(=O)N(C)CCN1CCN(c2cnc3c(cc(C(=O)NCc4ccc(Cl)cc4)c(=O)n3CC(=O)N3CC(C)(F)C3)n2)C1=O
selectivity ratio (human cytomegalovirus; MRC-5, AD169-GFP; relative to: CC50 over EC50): > 22.9

Some of these lines once more:
CC(C)(C)NCC(SS(=O)(=O)O)c1ccccc1 (stereo not drawn)
body weight (Schistosoma mansoni; perfusion day 57; infected Swiss Webster mice; 200 mg/kg daily x4, dosing from day 7): 34.8 g and 33.2 g and 31.1 g and 30.5 g and 34.3 g
